Measured values collected from several papers.
Numbered parts are unrelated; each lists some results of a single study. Substitutions count along the parent as printed.
UniProt Q9SKN5, sequence (whole entry, looked up): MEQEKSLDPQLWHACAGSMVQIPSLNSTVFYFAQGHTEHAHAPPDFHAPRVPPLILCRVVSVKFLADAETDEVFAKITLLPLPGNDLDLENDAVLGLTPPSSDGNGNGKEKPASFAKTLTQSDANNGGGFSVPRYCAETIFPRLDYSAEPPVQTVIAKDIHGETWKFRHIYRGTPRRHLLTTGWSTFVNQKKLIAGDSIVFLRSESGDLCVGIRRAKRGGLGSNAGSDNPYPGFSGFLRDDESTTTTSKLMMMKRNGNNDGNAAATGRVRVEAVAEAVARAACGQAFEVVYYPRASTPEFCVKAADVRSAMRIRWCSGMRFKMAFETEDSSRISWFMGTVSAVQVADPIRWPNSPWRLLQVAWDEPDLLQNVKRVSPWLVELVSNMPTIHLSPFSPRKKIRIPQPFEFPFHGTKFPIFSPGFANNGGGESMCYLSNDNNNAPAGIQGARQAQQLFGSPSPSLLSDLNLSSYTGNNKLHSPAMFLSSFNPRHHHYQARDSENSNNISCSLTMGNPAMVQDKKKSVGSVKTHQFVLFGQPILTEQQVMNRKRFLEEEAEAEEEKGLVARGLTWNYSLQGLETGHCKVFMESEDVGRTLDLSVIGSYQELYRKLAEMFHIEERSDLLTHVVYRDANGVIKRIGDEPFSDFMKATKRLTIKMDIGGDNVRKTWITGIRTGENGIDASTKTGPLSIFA
UniProt Q9ZSY8, sequence (whole entry, looked up): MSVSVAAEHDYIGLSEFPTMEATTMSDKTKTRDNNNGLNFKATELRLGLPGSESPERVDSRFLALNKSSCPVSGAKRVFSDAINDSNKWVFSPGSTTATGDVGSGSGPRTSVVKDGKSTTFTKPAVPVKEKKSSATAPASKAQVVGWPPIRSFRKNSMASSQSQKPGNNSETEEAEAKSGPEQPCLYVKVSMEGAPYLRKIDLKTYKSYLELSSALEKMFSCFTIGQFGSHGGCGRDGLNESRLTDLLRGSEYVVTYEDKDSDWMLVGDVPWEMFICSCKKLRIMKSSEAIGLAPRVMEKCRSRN
UniProt Q9XID4, sequence (whole entry, looked up): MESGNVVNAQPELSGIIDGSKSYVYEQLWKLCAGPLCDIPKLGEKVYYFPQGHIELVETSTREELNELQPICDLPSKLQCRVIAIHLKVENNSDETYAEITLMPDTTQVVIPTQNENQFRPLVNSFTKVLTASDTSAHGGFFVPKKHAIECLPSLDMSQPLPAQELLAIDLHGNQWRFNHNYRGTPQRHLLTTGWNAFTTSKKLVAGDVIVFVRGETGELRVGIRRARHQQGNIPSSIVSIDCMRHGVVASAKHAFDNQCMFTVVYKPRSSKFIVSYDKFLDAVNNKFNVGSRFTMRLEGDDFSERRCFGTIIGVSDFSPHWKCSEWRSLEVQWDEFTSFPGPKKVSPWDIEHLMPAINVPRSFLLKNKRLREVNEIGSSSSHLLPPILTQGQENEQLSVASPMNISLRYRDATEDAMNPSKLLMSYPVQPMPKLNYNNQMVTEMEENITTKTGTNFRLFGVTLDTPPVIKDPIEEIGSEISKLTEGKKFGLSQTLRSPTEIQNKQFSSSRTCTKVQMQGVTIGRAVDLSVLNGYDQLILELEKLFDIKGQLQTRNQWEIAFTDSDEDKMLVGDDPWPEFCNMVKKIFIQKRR
UniProt Q9M1R4, sequence (whole entry, looked up): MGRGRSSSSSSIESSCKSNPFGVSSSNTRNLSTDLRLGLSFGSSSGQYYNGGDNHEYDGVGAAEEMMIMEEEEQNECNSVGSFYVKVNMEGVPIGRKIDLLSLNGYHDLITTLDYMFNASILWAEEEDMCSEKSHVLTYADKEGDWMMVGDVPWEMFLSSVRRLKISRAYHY
UniProt O24408, sequence (whole entry, looked up): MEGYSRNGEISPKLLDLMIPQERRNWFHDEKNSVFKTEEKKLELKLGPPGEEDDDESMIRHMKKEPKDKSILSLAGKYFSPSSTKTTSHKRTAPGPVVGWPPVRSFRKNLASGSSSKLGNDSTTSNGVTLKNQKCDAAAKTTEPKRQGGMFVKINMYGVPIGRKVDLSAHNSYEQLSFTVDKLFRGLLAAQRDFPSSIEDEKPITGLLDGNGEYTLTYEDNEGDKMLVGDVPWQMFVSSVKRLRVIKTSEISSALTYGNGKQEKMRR

Series 1
Target: ABI1, truncated, D143A, DHFR fusion (Arabidopsis thaliana)
Technique: DHFR PCA, deep sequencing
Matrix: yeast
Notes: methotrexate growth selection, single substitutions
Together with: (+)-ABA 0 µM
Baseline: wild-type fitted maximum
Direction: higher = stronger binding
Parent: PYL1, truncated, DHFR fusion (Arabidopsis thaliana); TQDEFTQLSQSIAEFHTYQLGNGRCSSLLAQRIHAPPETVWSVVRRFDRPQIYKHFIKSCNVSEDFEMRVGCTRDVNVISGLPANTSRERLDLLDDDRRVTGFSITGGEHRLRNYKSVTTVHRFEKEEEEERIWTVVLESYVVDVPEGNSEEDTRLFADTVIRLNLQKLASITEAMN
Substitution	relative binding score
A13R	34.3%
Q31G	1.44%
G107V	0.629%
E139F	-13.8%
V62I	15.6%
L93M	20.1%
C25N	2.61%
Q167I	-3.32%
V121Q	1.11%
F157L	3.52%
D95C	-5.09%
T39H	7.86%
R123G	72.6%
W41I	4.38%
W41N	-9.17%
S150K	12.9%

Series 2
Molecule: B1 (IAA14)
Technique: two-hybrid
Direction: higher = firmer interaction
B1: IAA14 (Arabidopsis thaliana, UniProt Q38832); chain MNLKETELCLGLPGGTETVESPAKSGVGNKRGFSETVDLKLNLQSNKQGHVDLNTNGAPKEKTFLKDPSKPPAKAQVVGWPPVRNYRKNVMANQKSGEAEEAMSSGGGTVAFVKVSMDGAPYLRKVDLKMYTSYKDLSDALAKMFSSFTMGSYGAQGMIDFMNESKVMDLLNSSEYVPSYEDKDGDWMLVGDVPWPMFVESCKRLRIMKGSEAIGLAPRAMEKFKNRS
partner	conditions	scale	positive tests
IAA27 (Arabidopsis thaliana, UniProt Q9ZSY8)	–	baseline: out of 4 tests	2
ARF10 575-693 (Arabidopsis thaliana, UniProt Q9SKN5)	–	baseline: out of 4 tests	0
ARF12 500-593 (Arabidopsis thaliana, UniProt Q9XID4)	–	baseline: out of 4 tests	0
IAA18 (Arabidopsis thaliana, UniProt O24408)	–	baseline: out of 4 tests	1
IAA30 (Arabidopsis thaliana, UniProt Q9M1R4)	weak activation fusion	baseline: out of 2 tests	1

Series 3
Target: NFE2L1, bZIP domain (human)
Technique: DHFR protein complementation
Matrix: yeast
Notes: single substitutions, most at no-binding floor
Baseline: wild-type JUN-FOS pair
Direction: higher = stronger binding
Parent: JUN, bZIP domain (human); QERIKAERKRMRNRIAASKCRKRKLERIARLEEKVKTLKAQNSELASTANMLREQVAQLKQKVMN; partner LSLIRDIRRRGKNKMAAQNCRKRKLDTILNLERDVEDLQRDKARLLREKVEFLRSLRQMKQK
Substitution	binding fitness
S47K	-1.51 natural log
S47V	-1.21 natural log
M51G	-1.49 natural log
M51H	-1.41 natural log
M51D	-1.39 natural log
S47T	-1.43 natural log
L45K	-1.5 natural log
L31E	-1.52 natural log
K36E	-1.3 natural log
K39E	-1.35 natural log
E44S	-1.52 natural log
L45F	-1.58 natural log
T48L	-1.33 natural log
L45T	-1.53 natural log
M51T	-1.33 natural log
N42V	-1.48 natural log
E32P	-1.56 natural log
Q58S	-1.46 natural log
V35G	-1.46 natural log
Q55S	-1.33 natural log
V35R	-1.53 natural log
S47H	-1.33 natural log
N42E	-1.53 natural log
K39Q	-1.54 natural log
E33P	-1.5 natural log

Series 4
Target: Prothrombin, mature alpha-thrombin (F2, Homo sapiens, UniProt P00734)
Technique: aptamer microarray, sandwich
Form: DNA with 2'F-ANA
Matrix: in vitro
Tested at: 200 nM
Notes: whole 15-mer aptamer, many near background
Together with: Cy3 exosite-II aptamer, 400 nM
Direction: higher = stronger binding
Sequence: GGTTGGTGTGGTTGG
Modification	mean fluorescence intensity [a.u.]
2'F-ANA at 1 2 3 6 8 13	183
2'F-ANA at 2 3 6 7 10 11 12 13 14 15	217
2'F-ANA at 1 4 6 7 8 9 11 12 13 14 15	60.4
2'F-ANA at 1 4 6 10 14 15	46.8
2'F-ANA at 1 3 4 11 12 13 15	261
2'F-ANA at 2 3 6 7 10 11 14	272
2'F-ANA at 3 4 5 6 7 10 12	54.2
2'F-ANA at 5 7 9 11	79.8
2'F-ANA at 3 4 8 11 12 13	796
2'F-ANA at 6 8 11 12 13 14	188
2'F-ANA at 1 2 3 4 6 9 10 14 15	83.3
2'F-ANA at 4 5 7 9 11 12 14	49.8
2'F-ANA at 1 2 4 5 7 8 11 13 14 15	46.1
2'F-ANA at 1 10 11 12 13 14 15	51.3
2'F-ANA at 2 4 5 6 7 11	72.7
2'F-ANA at 1 3 5 8 13	57.9

Series 5
Target: CCNB1, cyclin fold, Cln2 fusion (human)
Technique: yeast growth competition, sequencing
Matrix: yeast
Notes: weak parent motif
Baseline: not given
Direction: higher = stronger binding
Parent: CDKN1A docking peptide (human); SKACRRLFGPVDS
Substitution	normalised enrichment score
SKACRRLFAPVDS [G9A]	0.581
SKACARAFGPVDS [R5A L7A]	0.149
SKACTRLFGPVDS [R5T]	-0.0866
SKGCRRLFGPVDS [A3G]	0.126
SGACRRLFGPVDS [K2G]	0.569
SKKCRRLFGPVDS [A3K]	0.65
SKACRRLFGPWDS [V11W]	0.293
SHACRRLFGPVDS [K2H]	0.31
SKAHRRLFGPVDS [C4H]	0.783
SKACRRLFGPFDS [V11F]	0.0509
SKACRRRFGPVDS [L7R]	0.363
SKACRRLFGPVRS [D12R]	-0.0727
SKACRRFFGPVDS [L7F]	0.258
SKACRQLFGPVDS [R6Q]	0.515
SKACRRLFGKVDS [P10K]	0.367
SKACRRLFGDVDS [P10D]	0.322
SKACIRLFGPVDS [R5I]	-0.0813
SKACRRLFGPRDS [V11R]	0.655
SKACRRLFGWVDS [P10W]	0.352
SKACRRLFGPVES [D12E]	-0.0508
